Results of several laboratories.
Numbers after ± are the reported error.
CDK2 with cyclin A: Cyclin-dependent kinase 2, with cyclin A (CDK2, Homo sapiens, UniProt P24941)
GRM2: Metabotropic glutamate receptor 2 (GRM2, Homo sapiens, UniProt Q14416)
Sequence of UniProt Q14416 (whole entry, looked up): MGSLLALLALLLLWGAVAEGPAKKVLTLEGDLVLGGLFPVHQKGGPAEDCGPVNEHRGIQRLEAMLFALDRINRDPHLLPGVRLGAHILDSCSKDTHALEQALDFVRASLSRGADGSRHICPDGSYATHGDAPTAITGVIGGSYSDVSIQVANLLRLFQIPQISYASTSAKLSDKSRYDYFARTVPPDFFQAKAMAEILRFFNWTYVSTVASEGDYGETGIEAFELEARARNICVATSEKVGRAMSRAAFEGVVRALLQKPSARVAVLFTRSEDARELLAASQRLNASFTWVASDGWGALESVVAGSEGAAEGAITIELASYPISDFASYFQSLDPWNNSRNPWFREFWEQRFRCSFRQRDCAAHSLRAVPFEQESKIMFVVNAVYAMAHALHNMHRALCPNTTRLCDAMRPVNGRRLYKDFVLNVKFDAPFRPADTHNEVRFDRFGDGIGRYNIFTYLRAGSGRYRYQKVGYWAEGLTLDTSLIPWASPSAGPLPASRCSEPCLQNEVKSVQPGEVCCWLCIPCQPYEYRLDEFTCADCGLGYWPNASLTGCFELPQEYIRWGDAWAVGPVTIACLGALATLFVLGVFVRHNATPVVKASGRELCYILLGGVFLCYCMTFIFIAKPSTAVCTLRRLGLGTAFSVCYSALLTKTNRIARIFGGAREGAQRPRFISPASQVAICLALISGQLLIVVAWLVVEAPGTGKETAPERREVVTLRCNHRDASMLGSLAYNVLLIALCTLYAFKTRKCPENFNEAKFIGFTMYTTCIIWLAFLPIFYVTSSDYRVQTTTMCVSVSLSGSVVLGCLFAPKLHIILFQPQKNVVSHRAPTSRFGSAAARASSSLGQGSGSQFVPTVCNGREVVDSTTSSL
GPR35: G-protein coupled receptor 35 (GPR35, Homo sapiens, UniProt Q9HC97)
Sequence of UniProt Q9HC97 (whole entry, looked up): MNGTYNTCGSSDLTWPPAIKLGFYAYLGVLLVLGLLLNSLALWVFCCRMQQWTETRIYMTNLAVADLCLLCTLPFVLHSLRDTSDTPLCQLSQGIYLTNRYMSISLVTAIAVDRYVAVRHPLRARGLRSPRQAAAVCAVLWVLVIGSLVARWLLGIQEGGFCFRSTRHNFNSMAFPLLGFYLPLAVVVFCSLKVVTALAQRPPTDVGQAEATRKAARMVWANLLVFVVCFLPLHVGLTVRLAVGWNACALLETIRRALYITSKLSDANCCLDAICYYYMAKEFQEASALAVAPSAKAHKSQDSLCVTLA
Replicase polyprotein 1a 3C-like proteinase: Replicase polyprotein 1a, 3C-like proteinase (Ferret coronavirus, UniProt A0A172B201)
Sequence of UniProt P56817 (whole entry, looked up): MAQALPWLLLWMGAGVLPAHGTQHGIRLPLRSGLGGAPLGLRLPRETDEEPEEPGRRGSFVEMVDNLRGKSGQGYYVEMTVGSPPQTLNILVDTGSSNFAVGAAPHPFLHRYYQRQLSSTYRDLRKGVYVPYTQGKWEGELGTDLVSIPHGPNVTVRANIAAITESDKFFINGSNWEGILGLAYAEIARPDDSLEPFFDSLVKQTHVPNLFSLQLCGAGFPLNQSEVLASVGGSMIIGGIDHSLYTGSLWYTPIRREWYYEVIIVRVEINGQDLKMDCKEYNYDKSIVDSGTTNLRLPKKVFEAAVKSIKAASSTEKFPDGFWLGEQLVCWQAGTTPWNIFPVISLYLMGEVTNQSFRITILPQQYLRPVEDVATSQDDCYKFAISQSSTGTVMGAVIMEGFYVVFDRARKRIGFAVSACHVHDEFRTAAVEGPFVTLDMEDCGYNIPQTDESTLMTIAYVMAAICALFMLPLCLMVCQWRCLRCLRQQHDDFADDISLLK
Sequence of UniProt Q8IAS0 (whole entry, looked up): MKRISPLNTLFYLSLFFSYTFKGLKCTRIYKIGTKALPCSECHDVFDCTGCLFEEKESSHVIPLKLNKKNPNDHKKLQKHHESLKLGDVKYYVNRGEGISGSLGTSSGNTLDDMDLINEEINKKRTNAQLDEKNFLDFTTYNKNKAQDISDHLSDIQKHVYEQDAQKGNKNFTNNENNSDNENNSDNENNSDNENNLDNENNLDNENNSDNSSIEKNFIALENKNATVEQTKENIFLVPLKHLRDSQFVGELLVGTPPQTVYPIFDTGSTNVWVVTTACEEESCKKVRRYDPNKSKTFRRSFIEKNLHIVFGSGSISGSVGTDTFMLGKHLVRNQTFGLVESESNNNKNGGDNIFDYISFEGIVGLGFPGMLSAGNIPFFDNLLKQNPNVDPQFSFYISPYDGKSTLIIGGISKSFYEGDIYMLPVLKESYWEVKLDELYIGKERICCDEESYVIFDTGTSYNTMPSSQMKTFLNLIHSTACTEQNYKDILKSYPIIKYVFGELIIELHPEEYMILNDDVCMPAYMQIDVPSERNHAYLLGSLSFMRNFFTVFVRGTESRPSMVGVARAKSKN

For `CC(C)C[C@H](NC(=O)[C@@H](NC(=O)[C@H](CCONC(=N)N)NC(=O)OCc1ccccc1)C1CCCCC1)[C@@H](O)CC(=O)NCCc1ccccc1`, the IC50 was > 11000 nM (Beta-secretase 1 (BACE1, Homo sapiens, UniProt P56817); enzyme activity, inhibitor).
For `Cc1cccc(-c2ccc3nc(NC(=O)CCc4ccccc4)nn3c2)c1`, the IC50 was > 100000 nM (CDK2 with cyclin A; enzyme activity, inhibitor).
With `FC(F)(F)c1c(-c2ccc(NC3CCOCC3)c(Cl)c2)ccn2c(CC3CC3)nnc12` the EC50 was 631 nM (GRM2; agonist; no glutamate).
For `CNC(=O)NC1=CC(=O)CC(C)(C)C1`, the IC50 was > 100000 nM (crk3 (Leishmania mexicana, UniProt O15851); enzyme activity, inhibitor, radiometric).
The EC50 of `Cc1ccc(Oc2ccc(-c3ccn4c(CC5CC5)nnc4c3C(F)(F)F)cc2F)c(C)n1` is reported as 9 nM (GRM2; GTPγS binding, positive allosteric modulator; together with: EC20 glutamate).
`O=C(O)c1cc(O)ccc1O` gave an EC50 of 69600 ± 7100 nM (GPR35; dynamic mass redistribution, agonist; HT-29; up to 1 h).
`COc1ccc(CNc2ccc(-c3ccn4c(CC5CC5)nnc4c3C(F)(F)F)cc2F)cn1` gave an EC50 of 14 nM (GRM2; GTPγS binding, positive allosteric modulator; together with: EC20 glutamate).
For `O=C(O)Cc1cc(O)ccc1O`, the EC50 was > 500000 nM (GPR35; dynamic mass redistribution, agonist; HT-29; up to 1 h).
The IC50 of `Cc1cccc(-c2ccc3nc(NC(=O)C4CCCO4)nn3c2)c1` (stereo not drawn) is reported as > 100000 nM (CDK2 with cyclin A; enzyme activity, inhibitor).
With `Cc1cc(Oc2ccc(-c3ccn4c(CC5CC5)nnc4c3C(F)(F)F)cc2F)ccn1` the EC50 was 1860 nM (GRM2; agonist; no glutamate).
For `CC(C)C[C@H](NC(=O)[C@@H](NC(=O)[C@H](CCONC(=N)N)NC(=O)OCc1ccccc1)C(C)C)[C@@H](O)CC(=O)NCCc1ccccc1`, the IC50 was 1850 nM (Plasmepsin X (Plasmodium falciparum, UniProt Q8IAS0); enzyme activity, inhibitor).
`CC(C)C[C@H](NC(=O)OCc1cccc(Cl)c1)C(=O)N[C@H](C=O)C[C@@H]1CCNC1=O` has an IC50 of 1450 ± 180 nM (Replicase polyprotein 1a 3C-like proteinase; enzyme activity, FRET; NL-2010).
`O=C(Nc1nc2ccc(-c3ccccc3)cn2n1)C1CCCCC1` has an IC50 of > 100000 nM (CDK2 with cyclin A; enzyme activity, inhibitor).
With `FC(F)(F)c1c(-c2ccc(N3CCNCC3)c(Cl)c2)ccn2c(CC3CC3)nnc12` the EC50 was 12000 nM (GRM2; agonist; no glutamate).
For `CC(C)C[C@H](NC(=O)OCc1ccccc1)C(=O)N[C@@H](C[C@@H]1CCNC1=O)C(=O)C(=O)NC1CCCCC1`, the IC50 was 830 ± 410 nM (Replicase polyprotein 1a 3C-like proteinase; enzyme activity, FRET; NL-2010).
